Results of several laboratories.
Each line is one published result; not all experiments were run side by side. Numbers after ± are the reported error.
rep nsp14: Replicase polyprotein 1ab, nsp14 (rep, Severe acute respiratory syndrome coronavirus 2, UniProt P0DTD1)
UniProt P11388, sequence (whole entry, looked up): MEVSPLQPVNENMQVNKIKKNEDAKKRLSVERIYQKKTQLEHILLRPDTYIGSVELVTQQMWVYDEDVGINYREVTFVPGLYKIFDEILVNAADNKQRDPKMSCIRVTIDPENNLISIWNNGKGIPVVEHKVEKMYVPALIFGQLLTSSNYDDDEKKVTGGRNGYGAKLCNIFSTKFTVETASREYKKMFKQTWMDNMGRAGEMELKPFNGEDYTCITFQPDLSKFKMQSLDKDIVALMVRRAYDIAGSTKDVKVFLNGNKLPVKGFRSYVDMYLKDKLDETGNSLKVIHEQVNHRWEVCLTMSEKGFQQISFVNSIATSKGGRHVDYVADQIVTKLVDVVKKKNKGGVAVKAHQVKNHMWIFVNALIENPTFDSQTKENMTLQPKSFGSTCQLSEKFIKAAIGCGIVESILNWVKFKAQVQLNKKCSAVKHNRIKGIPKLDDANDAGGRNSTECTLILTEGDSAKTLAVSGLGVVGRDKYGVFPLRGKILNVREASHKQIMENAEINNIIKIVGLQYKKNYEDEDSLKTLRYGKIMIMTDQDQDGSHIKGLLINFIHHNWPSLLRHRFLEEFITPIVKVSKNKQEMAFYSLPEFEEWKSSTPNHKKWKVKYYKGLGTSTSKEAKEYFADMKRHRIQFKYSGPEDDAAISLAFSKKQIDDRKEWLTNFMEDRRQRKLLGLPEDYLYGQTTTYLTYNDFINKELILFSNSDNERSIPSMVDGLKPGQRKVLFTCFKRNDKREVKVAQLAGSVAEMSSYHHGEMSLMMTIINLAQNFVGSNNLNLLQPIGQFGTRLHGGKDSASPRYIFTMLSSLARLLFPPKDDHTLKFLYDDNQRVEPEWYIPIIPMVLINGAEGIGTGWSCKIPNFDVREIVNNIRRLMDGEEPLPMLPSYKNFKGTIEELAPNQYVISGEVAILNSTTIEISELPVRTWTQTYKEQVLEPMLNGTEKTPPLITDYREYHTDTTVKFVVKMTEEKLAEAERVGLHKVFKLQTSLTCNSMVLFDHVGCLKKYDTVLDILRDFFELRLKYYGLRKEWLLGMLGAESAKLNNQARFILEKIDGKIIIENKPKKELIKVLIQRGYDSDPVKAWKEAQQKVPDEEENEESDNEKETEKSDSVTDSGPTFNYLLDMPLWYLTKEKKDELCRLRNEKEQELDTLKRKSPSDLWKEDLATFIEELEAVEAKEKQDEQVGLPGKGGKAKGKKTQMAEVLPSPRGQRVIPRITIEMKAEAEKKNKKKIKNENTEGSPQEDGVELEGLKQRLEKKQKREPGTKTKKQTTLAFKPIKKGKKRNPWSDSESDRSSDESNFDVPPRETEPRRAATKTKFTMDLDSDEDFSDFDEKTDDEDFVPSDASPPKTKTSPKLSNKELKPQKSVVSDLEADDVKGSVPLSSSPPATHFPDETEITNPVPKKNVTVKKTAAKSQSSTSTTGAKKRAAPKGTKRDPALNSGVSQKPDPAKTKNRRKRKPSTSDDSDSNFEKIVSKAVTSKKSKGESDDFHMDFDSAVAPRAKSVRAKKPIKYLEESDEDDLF

Structure (SMILES)	target or system	assay	system	setting	scale	quantity	value
Cc1cc(C)cc(S(=O)(=O)c2c(C(=O)NCCNS(=O)(=O)c3cccnc3)[nH]c3ccc(Cl)cc23)c1	Gag-Pol polyprotein, reverse transcriptase (gag-pol, Human immunodeficiency virus 1, UniProt P03366)	enzyme activity, inhibitor, ELISA	–	–	–	IC50	60 nM
Cc1c(S(=O)(=O)N2CCc3[nH]ncc3C2)cc(C(=O)NCc2c(F)ccc3occc23)n1C	rep nsp14	inhibitor	–	–	–	IC50	< 0.15 nM
CC(C)C[C@H](NC(=O)OCc1ccccc1)C(=O)N[C@H](C=O)C[C@@H]1CCCNC1=O	SARS-CoV-2	viral replication, RT-qPCR viral load	Vero	48 h	–	EC90	3700 ± 800 nM
COc1cc([C@@H]2c3cc4c(cc3[C@@H](O[C@@H]3O[C@@H]5CO[C@@H](C)O[C@H]5[C@H](O)[C@H]3O)[C@H]3COC(=O)[C@H]23)OCO4)cc(OC)c1O	TOP2A (Homo sapiens, UniProt P11388)	DNA cleavage	–	31.25 µM	–	mean linear DNA	14.9%
CC1COc2ccccc2N1C(=O)C(Cl)Cl (centres unmarked)	carboxylesterase	–	male rhesus monkey liver cytosol	5 µM, pH 7.4, without GSH	–	scaled intrinsic clearance	42 mL/min/g liver
Fc1ccccc1Cc1nc(-c2nc(C(F)(F)F)n[nH]2)cn2ccnc12	–	–	healthy volunteers	3 mg, single ascending dose	relative to: placebo	choice reaction time	-26.8 ms
C[C@H]1O[C@@H](O[C@H]2[C@@H](O)C[C@H](O[C@H]3[C@@H](O)C[C@H](O[C@H]4CC[C@@]5(C)[C@H](CC[C@@H]6[C@@H]5CC[C@]5(C)[C@@H](C7=CC(=O)OC7)CC[C@]65O)C4)O[C@@H]3C)O[C@@H]2C)C[C@H](O)[C@@H]1O	MYBPC3 iPSC cardiomyocytes	plate-normalised	–	concentration not given, 24 h, hit retest	–	MyBP-C level	9.1%
O=C(O)c1cccnc1Nc1cccc(C(F)(F)F)c1	–	vericiguat glucuronidation, inhibitor, measured: metabolite M-1 formation	human liver microsomes	5.0 µM	relative to: no inhibitor	remaining activity	49.8%
O=P(O)(O)OC[C@H]1OC(O)[C@H](O)[C@@H](O)[C@@H]1O (some centres unmarked)	uncharacterized protein (Bacteroides thetaiotaomicron, UniProt Q8A183)	activator, phosphate release	–	concentration not given, added: Mg2+	–	phosphatase activity	active
CO/N=C(\C(=O)N[C@@H]1C(=O)N2C(C(=O)O)=C(COC(C)=O)CS[C@H]12)c1csc(N)n1	Salmonella enterica serovar Enteritidis	broth microdilution	clinical isolate RKI-No 205/14	–	–	MIC	> 16 µg/mL
OC[C@H]1O[C@@H](O[C@@H]2[C@@H](O)[C@H](O[C@H]3[C@H](O)[C@@H](CO)OC(O)[C@@H]3O)O[C@H](CO)[C@H]2O)[C@H](O)[C@@H](O)[C@@H]1O (some centres unmarked)	Bacteroides thetaiotaomicron	binding, ITC	–	pH 7.0, 25 °C, distal domain	–	ΔH	-10.1 kcal/mol
Clc1nc(NCc2ccco2)c2[nH]cnc2n1	B-lymphoblastoid cells from healthy donors	RT-PCR	–	concentration not given	–	GLA splicing	no effect
OC[C@H]1O[C@@H](O[C@@H]2[C@@H](O)[C@H](O[C@@H]3[C@@H](O)[C@H](O[C@@H]4[C@@H](O)[C@H](O[C@H]5[C@H](O)[C@@H](CO)OC(O)[C@@H]5O)O[C@H](CO)[C@H]4O)O[C@H](CO)[C@H]3O)O[C@H](CO)[C@H]2O)[C@H](O)[C@@H](O)[C@@H]1O (some centres unmarked)	Bacteroides thetaiotaomicron	binding, ITC	–	pH 7.0, 25 °C, distal domain	–	ΔG	-26.1 kcal/mol
COC(=O)Nc1c(N)nc(-c2nn(Cc3ccccc3F)c3ncc(F)cc23)nc1N	–	–	healthy white men	dose not given, day 14, 336 h, LS mean difference, added: sildenafil 50 mg	relative to: placebo	seated SBP maximum decrease	-0.6 mmHg
OC[C@H]1O[C@@H](O[C@@H]2[C@@H](O)[C@H](O[C@@H]3[C@@H](O)[C@H](O[C@@H]4[C@@H](O)[C@H](O[C@@H]5[C@@H](O)[C@H](O[C@H]6[C@H](O)[C@@H](CO)OC(O)[C@@H]6O)O[C@H](CO)[C@H]5O)O[C@H](CO)[C@H]4O)O[C@H](CO)[C@H]3O)O[C@H](CO)[C@H]2O)[C@H](O)[C@@H](O)[C@@H]1O (some centres unmarked)	Bacteroides thetaiotaomicron	binding, ITC	–	pH 7.0, 25 °C, distal domain	–	ΔG	-23.6 kcal/mol
C=C(C)[C@]12C[C@@H](C)[C@@]34O[C@](Cc5ccccc5)(O[C@@H]1[C@@H]3C=C(COC(=O)Cc1ccc(O)c(OC)c1)C[C@]1(O)C(=O)C(C)=C[C@@H]41)O2	HEK293T ATF4-FLuc reporter	ATF4 reporter gene, activator, luciferase reporter	–	–	–	EC50	224 nM
COc1cc([C@@H]2c3cc4c(cc3[C@@H](O[C@@H]3O[C@@H]5CO[C@@H](C)O[C@H]5[C@H](O)[C@H]3O)[C@H]3COC(=O)[C@H]23)OCO4)cc(OC)c1O	MRC5 normal lung fibroblasts	MTT	–	48 h	–	TGI	> 100000 nM
CCC1CCN(S(=O)(=O)c2cc(C(=O)NCc3ccccc3OC)n(C)c2C)CC1	rep nsp14	inhibitor	–	–	–	IC50	540 nM
N#CCC1CCN(c2nc(Nc3ccc(N4CCC(O)CC4)cc3)c3c(=O)[nH]ncc3n2)CC1	–	vs placebo, Olink multiplex	human, serum	40 mg, day 15, unit not given	relative to: placebo	IL-18 level difference	-1.42
OC[C@H]1O[C@@H](O[C@@H]2[C@@H](O)[C@H](O[C@@H]3[C@@H](O)[C@H](O[C@H]4[C@H](O)[C@@H](CO)OC(O)[C@@H]4O)O[C@H](CO)[C@H]3O)O[C@H](CO)[C@H]2O)[C@H](O)[C@@H](O)[C@@H]1O (some centres unmarked)	Bacteroides thetaiotaomicron	binding, ITC	–	pH 7.0, 25 °C, middle domain	–	ΔH	-11.8 kcal/mol

For quick reference, copied from above:
Structure (SMILES)	target or system	assay	system	setting	scale	quantity	value
CO/N=C(\C(=O)N[C@@H]1C(=O)N2C(C(=O)O)=C(COC(C)=O)CS[C@H]12)c1csc(N)n1	Salmonella enterica serovar Enteritidis	broth microdilution	clinical isolate RKI-No 205/14	–	–	MIC	> 16 µg/mL
OC[C@H]1O[C@@H](O[C@@H]2[C@@H](O)[C@H](O[C@H]3[C@H](O)[C@@H](CO)OC(O)[C@@H]3O)O[C@H](CO)[C@H]2O)[C@H](O)[C@@H](O)[C@@H]1O (some centres unmarked)	Bacteroides thetaiotaomicron	binding, ITC	–	pH 7.0, 25 °C, distal domain	–	ΔH	-10.1 kcal/mol
Clc1nc(NCc2ccco2)c2[nH]cnc2n1	B-lymphoblastoid cells from healthy donors	RT-PCR	–	concentration not given	–	GLA splicing	no effect
